{"sequences": {"note": "Amino acid sequences for entries named in this document (tags omitted).", "UniProt P08684, whole entry": "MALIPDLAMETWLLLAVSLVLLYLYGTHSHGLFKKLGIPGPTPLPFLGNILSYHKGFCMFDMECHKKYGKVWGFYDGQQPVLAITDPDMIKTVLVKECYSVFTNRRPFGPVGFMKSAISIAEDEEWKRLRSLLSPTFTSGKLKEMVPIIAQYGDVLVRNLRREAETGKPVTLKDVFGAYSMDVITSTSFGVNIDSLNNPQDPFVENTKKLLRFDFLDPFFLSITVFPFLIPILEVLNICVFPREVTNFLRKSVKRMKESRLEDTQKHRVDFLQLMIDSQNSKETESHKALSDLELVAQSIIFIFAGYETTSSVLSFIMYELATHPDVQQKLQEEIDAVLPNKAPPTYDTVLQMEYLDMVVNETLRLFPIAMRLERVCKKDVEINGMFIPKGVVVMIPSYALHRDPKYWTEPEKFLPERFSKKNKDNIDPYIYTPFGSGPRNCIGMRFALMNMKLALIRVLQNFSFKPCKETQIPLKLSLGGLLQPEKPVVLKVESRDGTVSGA", "UniProt P10635, whole entry": "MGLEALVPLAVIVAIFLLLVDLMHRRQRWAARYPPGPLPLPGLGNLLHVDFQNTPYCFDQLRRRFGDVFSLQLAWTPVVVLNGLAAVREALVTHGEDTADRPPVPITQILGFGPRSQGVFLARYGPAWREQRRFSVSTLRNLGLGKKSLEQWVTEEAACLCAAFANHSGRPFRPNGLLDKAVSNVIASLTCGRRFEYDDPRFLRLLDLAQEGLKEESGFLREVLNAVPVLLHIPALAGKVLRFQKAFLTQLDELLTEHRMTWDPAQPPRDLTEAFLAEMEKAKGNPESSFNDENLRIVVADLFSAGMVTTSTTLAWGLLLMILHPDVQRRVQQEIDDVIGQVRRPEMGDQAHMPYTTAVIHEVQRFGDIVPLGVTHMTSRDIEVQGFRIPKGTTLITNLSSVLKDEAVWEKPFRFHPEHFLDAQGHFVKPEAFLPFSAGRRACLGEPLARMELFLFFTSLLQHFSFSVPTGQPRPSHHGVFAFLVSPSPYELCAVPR"}, "data": "Assay results collected from several papers", "note": "Protocols differ between the studies behind these lines. ± gives the spread as reported."}
{"SMILES": "COc1cc([C@@H]2c3cc4c(cc3[C@@H](OC(C)C)[C@H]3COC(=O)[C@H]23)OCO4)cc(OC)c1OC", "tested on": "HepG2", "test": "Alamar Blue", "setting": "48 h", "measurement": "CC50", "value": "> 100 µM"}
{"SMILES": "CCOc1ccc(S(=O)(=O)NC(=O)Cc2ccc(I)cc2)cc1Br", "tested on": "MDCKII-MDR1", "setting": "time not given", "measurement": "recovery A-B", "value": "96%"}
{"SMILES": "Cc1n[nH]c(C)c1CCOC(=O)c1cccc2c1oc(=O)n2C", "test system": "BALB/c mouse, plasma", "setting": "intravenous, 2 mg/kg", "measurement": "Cmax", "value": "3280 ng/mL"}
{"SMILES": "Cc1c(-c2ccccc2)nn2c(=O)cc(-c3cccc(-c4nnn[nH]4)c3)[nH]c12", "test system": "mouse", "setting": "intravenous", "measurement": "half-life", "value": "< 1 h"}
{"SMILES": "Cc1cc(NC(=O)c2cccc(NC(=O)C3=CC(C)(C)CCC3=O)c2)ccc1Nc1nccc(-c2cccnc2)n1", "test system": "rat plasma", "setting": "1 µM, 30 min", "measurement": "compound remaining", "value": "102%"}
{"SMILES": "COC(=O)[C@@H]1C(c2nc3cncnc3[nH]2)=Cc2cc3c(cc2[C@H]1c1cc(OC)c(OC)c(OC)c1)OCO3", "tested on": "HepG2", "test": "Alamar Blue", "setting": "48 h", "measurement": "CC50", "value": "92.5 ± 6.8 µM"}
{"SMILES": "Nc1ncc(-c2ccc3ncnc(N4CCc5cc(F)c(Cl)cc54)c3c2)cn1", "test system": "CD1 mouse, brain", "setting": "oral, 100 mg/kg", "measurement": "Tmax", "value": "8 h"}
{"SMILES": "Cc1cc(SCc2sc(-c3ccc(C#N)cc3)nc2C)ccc1OCC(=O)O", "tested on": "HEK293T", "setting": "18 h", "measurement": "CC50", "value": "> 80 µM"}
{"SMILES": "CC(C)n1nnc(-c2cc(O)cc(Nc3ncnn4ccc(CN5CCC(N)CC5)c34)c2)n1", "test system": "mouse, plasma", "setting": "subcutaneous, 60 mg/kg, 90 min", "measurement": "total plasma concentration", "value": "11.9 ± 1.2 µM"}
{"SMILES": "COc1ccc(CC(=O)OCc2ccc(-n3cccn3)cc2)cc1F", "test system": "BALB/c mouse, plasma", "setting": "oral, 10 mg/kg", "measurement": "AUC(0-t)", "value": "9400 ng·h/mL"}
{"SMILES": "CCCCNCC1=Cc2cc3c(cc2[C@@H](c2cc(OC)c(OC)c(OC)c2)[C@@H]1C(=O)OC)OCO3", "tested on": "mouse splenocytes uninfected", "test": "Alamar Blue", "setting": "48 h", "measurement": "CC50", "value": "> 100 µM"}
{"SMILES": "Cc1ccc(NC(=O)C2CC3CCC2C3)c(C)c1 (stereo not shown)", "tested on": "Cytochrome P450 3A4 (CYP3A4, Homo sapiens, UniProt P08684)", "test": "enzyme activity, inhibitor", "measurement": "IC50", "value": "> 30 µM"}
{"SMILES": "Cc1cc(SCc2sc(-c3ccc(Cl)c(Cl)c3)nc2C)ccc1OCC(=O)O", "tested on": "HEK293T", "setting": "18 h", "measurement": "CC50", "value": "> 50 µM"}
{"SMILES": "COC(=O)[C@@H]1C(c2nc3cc(C)ccc3o2)=Cc2cc3c(cc2[C@H]1c1cc(OC)c(OC)c(OC)c1)OCO3", "tested on": "mouse splenocytes uninfected", "test": "Alamar Blue", "setting": "48 h", "measurement": "CC50", "value": "86.2 ± 0.1 µM"}
{"SMILES": "CCOc1ccccc1Nc1nnc(SCC(=O)Nc2cc(F)ccc2F)s1", "tested on": "WI-38", "test": "cytotoxicity", "measurement": "IC50", "value": "> 100 µM"}
{"SMILES": "Cc1cc(SCc2sc(-c3ccc(Cl)cc3C(F)(F)F)nc2C)ccc1OCC(=O)O", "tested on": "HEK293T", "setting": "18 h", "measurement": "CC50", "value": "> 50 µM"}
{"SMILES": "COC(=O)[C@@H]1C(C=Nc2ccccc2)=Cc2cc3c(cc2[C@H]1c1cc(OC)c(OC)c(OC)c1)OCO3", "tested on": "mouse splenocytes uninfected", "test": "Alamar Blue", "setting": "48 h", "measurement": "CC50", "value": "> 100 µM"}
{"SMILES": "Cc1cc(SCc2sc(-c3cccc4[nH]ccc34)nc2C)ccc1OCC(=O)O", "tested on": "HEK293T", "setting": "18 h", "measurement": "CC50", "value": "not toxic"}
{"SMILES": "COC(=O)[C@@H]1C(C=Nc2nccs2)=Cc2cc3c(cc2[C@H]1c1cc(OC)c(OC)c(OC)c1)OCO3", "tested on": "mouse splenocytes uninfected", "test": "Alamar Blue", "setting": "48 h", "measurement": "CC50", "value": "58.1 ± 2.7 µM"}
{"SMILES": "Cc1cc(SCc2sc(-c3cccc4ccccc34)nc2C)ccc1OCC(=O)O", "tested on": "HEK293T", "setting": "18 h", "measurement": "CC50", "value": "> 50 µM"}
{"SMILES": "COc1ccc(NC(=O)CN2CCCN(S(=O)(=O)c3cccs3)CC2)c(OC)c1", "tested on": "Cytochrome P450 2D6 (CYP2D6, Homo sapiens, UniProt P10635)", "test": "enzyme activity, inhibitor", "measurement": "IC50", "value": "10.1 µM"}
{"SMILES": "CCCSc1nc(N[C@@H]2C[C@H]2c2ccc(F)c(F)c2)c2nnn([C@@H]3C[C@H](O)[C@@H](O)[C@H]3O)c2n1", "test system": "ovariectomized female Wistar rat, plasma", "setting": "oral, 180 mg/kg/day ticagrelor, 5 h, day 1", "measurement": "plasma concentration", "value": "8.1 ± 2.7 µM"}
{"SMILES": "Cc1cc(SCc2sc(-c3ccc4cn[nH]c4c3)nc2C)ccc1OCC(=O)O", "tested on": "HEK293T", "setting": "18 h", "measurement": "CC50", "value": "> 100 µM"}
{"SMILES": "Cc1ccccc1OCCCSCc1nc2ccccc2[nH]1", "tested on": "SW480 tumour organoids", "test": "cytotoxicity, 3D culture", "setting": "72 h", "measurement": "IC50", "value": "34.1 µM"}
{"SMILES": "COC(=O)[C@@H]1C(C=Nc2cc(C)ccc2O)=Cc2cc3c(cc2[C@H]1c1cc(OC)c(OC)c(OC)c1)OCO3", "tested on": "mouse splenocytes uninfected", "test": "Alamar Blue", "setting": "48 h", "measurement": "CC50", "value": "38.7 ± 1.5 µM"}
{"SMILES": "Cc1cc(SCc2sc(-c3cncc4ccccc34)nc2C)ccc1OCC(=O)O", "tested on": "HEK293T", "setting": "18 h", "measurement": "CC50", "value": "not toxic"}
{"SMILES": "COC(=O)[C@@H]1C(c2nc3cc(Cl)ccc3o2)=Cc2cc3c(cc2[C@H]1c1cc(OC)c(OC)c(OC)c1)OCO3", "tested on": "HepG2", "test": "Alamar Blue", "setting": "48 h", "measurement": "CC50", "value": "46.8 ± 1.3 µM"}
{"SMILES": "Cc1cc(SCc2sc(-c3ccccc3)nc2C)ccc1OCC(=O)O", "tested on": "HEK293T", "setting": "18 h", "measurement": "CC50", "value": "> 100 µM"}
{"note": "For quick reference, copied from above:"}
{"SMILES": "COC(=O)[C@@H]1C(c2nc3cncnc3[nH]2)=Cc2cc3c(cc2[C@H]1c1cc(OC)c(OC)c(OC)c1)OCO3", "tested on": "HepG2", "test": "Alamar Blue", "setting": "48 h", "measurement": "CC50", "value": "92.5 ± 6.8 µM"}
{"SMILES": "Nc1ncc(-c2ccc3ncnc(N4CCc5cc(F)c(Cl)cc54)c3c2)cn1", "test system": "CD1 mouse, brain", "setting": "oral, 100 mg/kg", "measurement": "Tmax", "value": "8 h"}
